Results pooled from the literature.
Parts stem from different laboratories: compare values within a part only. “And” joins repeats or separate records; there may be more than shown.

Series 1
SMILES: c1ccc(-c2cnc(Nc3ccc(OCCN4CCCC4)cc3)s2)cc1
Read-out: enzyme activity
Action: inhibitor
Concentration: 0.5 µM
Relative to: control
The remaining activity was 76.1% (Vascular endothelial growth factor receptor 2 (KDR, Homo sapiens, UniProt P35968)).
It gave 39.8% for remaining activity (Cyclin-dependent kinase 9, with cyclin K (CDK9, Homo sapiens, UniProt P50750)).
For Serine/threonine-protein kinase Nek3 (NEK3, Homo sapiens, UniProt P51956): remaining activity read 92.9%.
For Misshapen-like kinase 1 (MINK1, Homo sapiens, UniProt Q8N4C8): remaining activity read 38.7%.
For Dual specificity mitogen-activated protein kinase kinase 1 (MAP2K1, Homo sapiens, UniProt Q02750): remaining activity read 96.9%.
It gave 91.1% for remaining activity (Tyrosine-protein kinase TXK (TXK, Homo sapiens, UniProt P42681)).
For Hepatocyte growth factor receptor (MET, Homo sapiens, UniProt P08581): remaining activity read 89.7%.
The remaining activity was 103% (Mitogen-activated protein kinase 14 (MAPK14, Homo sapiens, UniProt Q16539)).
It gave 94.3% for remaining activity (Dual specificity protein kinase CLK3 (CLK3, Homo sapiens, UniProt P49761)).
For RAC-beta serine/threonine-protein kinase (AKT2, Homo sapiens, UniProt P31751): remaining activity read 92.4%.
It gave 98% for remaining activity (Serine/threonine-protein kinase PLK3 (PLK3, Homo sapiens, UniProt Q9H4B4)).
It gave 95.2% for remaining activity (Cyclin-dependent kinase 1, with cyclin A (CDK1, Homo sapiens, UniProt P06493)).
The remaining activity was 96.1% (Ribosomal protein S6 kinase alpha-4 (RPS6KA4, Homo sapiens, UniProt O75676)).
Serine/threonine-protein kinase MARK2 (MARK2, Homo sapiens, UniProt Q7KZI7) — remaining activity: 88%.
Serine/threonine-protein kinase DCLK2 (DCLK2, Homo sapiens, UniProt Q8N568) — remaining activity: 87.6%.
The remaining activity was 96.7% (Serine/threonine-protein kinase MRCK beta (CDC42BPB, Homo sapiens, UniProt Q9Y5S2)).
MAP/microtubule affinity-regulating kinase 4 (MARK4, Homo sapiens, UniProt Q96L34) — remaining activity: 58.9%.
Dual specificity protein kinase CLK4 (CLK4, Homo sapiens, UniProt Q9HAZ1) — remaining activity: 97.9%.
It gave 83.4% for remaining activity (Mitogen-activated protein kinase 1 (MAPK1, Homo sapiens, UniProt P28482)).
G protein-coupled receptor kinase 4 (GRK4, Homo sapiens, UniProt P32298) — remaining activity: 98.3%.
Rho-associated protein kinase 1 (ROCK1, Homo sapiens, UniProt Q13464) — remaining activity: 102%.
The remaining activity was 86.6% (Discoidin domain-containing receptor 2 (DDR2, Homo sapiens, UniProt Q16832)).
The remaining activity was 99.1% (Serine/threonine-protein kinase PAK 3 (PAK3, Homo sapiens, UniProt O75914)).
For Calcium/calmodulin-dependent protein kinase type IV (CAMK4, Homo sapiens, UniProt Q16566): remaining activity read 97.2%.
Calcium/calmodulin-dependent protein kinase type 1B (PNCK, Homo sapiens, UniProt Q6P2M8) — remaining activity: 99.8%.

Series 2
Target: His6 tag
Method: AlphaScreen counter screen
Concentration: concentration not given
The inhibition of Nc1nc(Nc2cccc(C(F)(F)F)c2)sc1C(=O)c1ccccc1 is reported as -0.1%.
The inhibition of O=C(CSc1ccc2nnc(-c3cccc(F)c3)n2n1)N1CCOCC1 is reported as 9.25%.
With N#CC(=C1CCCC1)c1nc2ccccc2s1 the inhibition was 3.55%.
For CNC(=O)c1cc(Oc2ccc(NC(=O)Nc3ccc(Cl)c(C(F)(F)F)c3)cc2)ccn1, the inhibition was 8.9%.
Clc1cccc(Nc2cncc(-c3cccnc3)c2)c1 gave an inhibition of 2.75%.
Cc1cc(O)nc(SCC(=O)Nc2nnc(SCC(N)=O)s2)n1 gave an inhibition of 12.6%.
CCOC(=O)N1CCN(c2nc(N)nc3[nH]cnc23)CC1 has an inhibition of 10.5%.

Series 3
Cell line: mouse MPNST tumor cells
Method: high-content nuclear imaging
Refers to: cell number
Concentration: 10 µM
Time: 12 h
Notes: mean of 2 replicates
Relative to: plate mean
Reading: higher = more cells
With Cc1nc2c(O)cccc2c(=O)[nH]1 the nuclei count was 1 z-score.
For O=C(O)c1ccc(O)c2ncccc12, the nuclei count was -0.376 z-score.
With CN1CCCN=C1/C=C/c1cccc(O)c1 the nuclei count was 0.119 z-score.
The nuclei count of CNCc1ccccc1-c1csc([C@@H](C)Nc2nc(C)nc3cc(OC)c(OC)cc23)c1 is reported as -5.36 z-score.
For O=c1[nH]c2ccc(-c3c(Cl)cccc3OC(F)(F)F)cc2[nH]1, the nuclei count was -0.256 z-score.
For NC(=O)c1cn(C2OC(CO)C(O)C2O)c2ncnc(N)c2c1=O (stereo not drawn), the nuclei count was -3.27 z-score.
O=C(Nc1cc(C(F)(F)F)cc(C(F)(F)F)c1)c1cnc(Cl)nc1C(F)(F)F gave a nuclei count of -0.717 z-score.
For O=C(CCCCC(=O)Nc1c(I)cc(I)c(C(=O)O)c1I)Nc1c(I)cc(I)c(C(=O)O)c1I, the nuclei count was -0.175 z-score.

Series 4
Compound: CC(=O)N[C@@H](Cc1c[nH]c2ccccc12)C(=O)N[C@@H](CCC(=O)C=[N+]=[N-])C(=O)OC(C)C
Species: C57BL/6 CES1-/- mouse
Matrix: gastrointestinal tissue
Route: subcutaneous
Notes: scale 0-6 per slide
Reading: direction not given
It gave 1 and 2 for “GI histopathology sum score” (2.6 mg/kg).
It gave 0 for “GI histopathology sum score” (0.26 mg/kg).
It gave 0 for “GI histopathology sum score” (0.8 mg/kg).

Series 5
Target: Alpha-1B adrenergic receptor (ADRA1B, Homo sapiens, UniProt P35368)
Read-out: binding
Method: radioligand binding
Concentration: 10 µM
The inhibition of CCCOc1ccc([C@H]2[C@H](C(=O)O)[C@@H](c3ccc4c(c3)OCO4)CN2CC(=O)Nc2c(CC)cccc2CC)cc1 is reported as -2.22%.
The inhibition of CN1CCN(C(=O)C(C)(C)c2ccc(C(=O)Nc3cn4cc(-c5ccncc5)ccc4n3)cc2)CC1 is reported as 4.68%.
C[C@@H]1CN(c2cc(-c3nn(C)c4ccc(OC5(C)CC5)cc34)ncn2)C[C@H](C)O1 has an inhibition of 3.72%.
For CNC(=O)c1ccc(Nc2ncc(C(F)(F)F)c(NCc3nccnc3N(C)S(C)(=O)=O)n2)cc1, the inhibition was -0.22%.
With Cc1nc(C2CCN(C(=O)c3ccc(OC(F)(F)F)cc3N)CC2)c2ncc(N3CCN(C)CC3)cc2n1 the inhibition was 20.2%.
The inhibition of O=C1CCc2cc(Nc3cc(OC4CCOCC4)c([N+](=O)[O-])cc3Cl)ccc2N1 is reported as 17.2%.
With CC1=C(C#N)C(c2ccc3c(c2)c(NC(=O)c2ccccc2C)nn3C)C(C#N)=C(C)N1 the inhibition was -4.61%.
For CN1C(=O)[C@@H](N2CCc3cn(Cc4ccccc4)nc3C2=O)COc2ccccc21, the inhibition was -13.4%.
For CS(=O)(=O)NCC[C@H](NC(=O)c1cncc2c1cnn2-c1ccc(F)cc1)c1ccnc(S(C)(=O)=O)c1, the inhibition was 15.8%.
With COCCc1ccc(-c2c(C)nc3c(N4CCOCC4)ccnn23)cn1 the inhibition was -8.94%.
For O=C(NC[C@@H]1[C@H]2CN(C(=O)OCc3cc(C(F)(F)F)cc(C(F)(F)F)c3)C[C@@H]12)c1ccc2[nH]nnc2c1, the inhibition was 33.4%.
The inhibition of Cc1nccc(COC(=O)N2C[C@@H]3[C@@H](CNC(=O)c4ccc5[nH]nnc5c4)[C@@H]3C2)n1 is reported as 30.2%.

Other studies, line by line
The Arrhythmia incidence of CC(C)n1cnc(-c2ccc(F)cc2)c1-c1ncc(C(=O)Nc2ccc(N3CCN(C)CC3)cc2)[nH]1 is reported as 0% (IPF patients; 30 mg once daily, adverse event).
The AUC(0-inf) of COc1ccc(-c2c(Nc3ccccn3)[nH]c3c(C4=CCCCC4)c(-c4ccccc4)nn3c2=O)cc1 is reported as 52300 ng·h/mL (LC-MS/MS non-compartmental; human, plasma; oral, 200 mg, day -3 of cycle 0, single dose, geometric mean).

Some of these lines once more (series 5):
The inhibition of CN1CCN(C(=O)C(C)(C)c2ccc(C(=O)Nc3cn4cc(-c5ccncc5)ccc4n3)cc2)CC1 is reported as 4.68%.
C[C@@H]1CN(c2cc(-c3nn(C)c4ccc(OC5(C)CC5)cc34)ncn2)C[C@H](C)O1 has an inhibition of 3.72%.
For CNC(=O)c1ccc(Nc2ncc(C(F)(F)F)c(NCc3nccnc3N(C)S(C)(=O)=O)n2)cc1, the inhibition was -0.22%.
With Cc1nc(C2CCN(C(=O)c3ccc(OC(F)(F)F)cc3N)CC2)c2ncc(N3CCN(C)CC3)cc2n1 the inhibition was 20.2%.
The inhibition of O=C1CCc2cc(Nc3cc(OC4CCOCC4)c([N+](=O)[O-])cc3Cl)ccc2N1 is reported as 17.2%.
With CC1=C(C#N)C(c2ccc3c(c2)c(NC(=O)c2ccccc2C)nn3C)C(C#N)=C(C)N1 the inhibition was -4.61%.
For CN1C(=O)[C@@H](N2CCc3cn(Cc4ccccc4)nc3C2=O)COc2ccccc21, the inhibition was -13.4%.
For CS(=O)(=O)NCC[C@H](NC(=O)c1cncc2c1cnn2-c1ccc(F)cc1)c1ccnc(S(C)(=O)=O)c1, the inhibition was 15.8%.
With COCCc1ccc(-c2c(C)nc3c(N4CCOCC4)ccnn23)cn1 the inhibition was -8.94%.
For O=C(NC[C@@H]1[C@H]2CN(C(=O)OCc3cc(C(F)(F)F)cc(C(F)(F)F)c3)C[C@@H]12)c1ccc2[nH]nnc2c1, the inhibition was 33.4%.
